# Published values gathered from unrelated publications.
# ± gives the spread as reported.
Compound,system,setting,scale,quantity,value
Cc1nc(-c2ccc(OCC(C)C)c(C#N)c2)sc1C(=O)O,Japanese paediatric patients,"dose not given, mild or moderate renal dysfunction",reference: adult population,CL/F per body weight,no effect
CCCCC[C@H](O)CC[C@@H]1[C@H]2Cc3cccc(OCC(=O)O)c3C[C@H]2C[C@H]1O,"Japanese patients with PAH, plasma","inhaled, 54 µg four times daily, week 12",,CL/F,75.8 ± 57.6 L/h
CS(=O)(=O)c1ccc([C@@H](O)[C@@H](CF)NC(=O)C(Cl)Cl)cc1,"chicken, HY-Line Brown hens, plasma","oral, 20 mg/kg",,CL/F,1.33 ± 0.167 mL/min/kg
CC(C(=O)O)c1ccc(-c2ccccc2)c(F)c1 (stereo not drawn),healthy volunteers,"oral, 100 mg, arithmetic mean, together with: control beverage 250 mL",,CL/F,1.84 ± 0.582 L/h
Cc1nc2cccc(N)c2c(=O)n1C1CCC(=O)NC1=O (stereo not drawn),healthy adults,"oral, 3 mg, fasted geometric mean alone",,CL/F,4.18 L/h
O=C1c2cccc3c2[C@H](CCC3)CN1[C@@H]1CN2CCC1CC2,healthy volunteers,"oral, 0.50 mg single dose, mean, together with: netupitant 300 mg fixed combination",,CL/F,11.5 L/h
CC[C@H](C)[C@H](NC(=O)[C@H](Cc1ccccc1)NC(=O)[C@H](CC(=O)O)NC(=O)[C@H](CCCNC(=N)N)NC(=O)[C@H](C)NC(=O)[C@H](C)NC(=O)[C@H](CC(C)C)NC(=O)[C@H](CC(N)=O)NC(=O)[C@H](CC(=O)O)NC(=O)[C@H](CC(C)C)NC(=O)[C@@H](NC(=O)[C@@H](NC(=O)[C@H](CC(N)=O)NC(=O)[C@H](CCSC)NC(=O)[C@H](CCC(=O)O)NC(=O)[C@H](CC(=O)O)NC(=O)[C@H](CO)NC(=O)[C@H](Cc1ccccc1)NC(=O)[C@H](CO)NC(=O)CNC(=O)[C@H](CC(=O)O)NC(=O)CNC(=O)[C@@H](N)Cc1c[nH]cn1)[C@@H](C)O)[C@@H](C)CC)C(=O)N[C@@H](CC(N)=O)C(=O)N[C@@H](Cc1c[nH]c2ccccc12)C(=O)N[C@@H](CC(C)C)C(=O)N[C@H](C(=O)N[C@@H](CCC(N)=O)C(=O)N[C@H](C(=O)N[C@@H](CCCCN)C(=O)N[C@H](C(=O)N[C@H](C(=O)N[C@@H](CC(=O)O)C(=O)O)[C@@H](C)O)[C@@H](C)CC)[C@@H](C)O)[C@@H](C)CC,"Japanese patients, mild renal impairment","subcutaneous, 0.05 mg/kg",reference: normal renal function,CL/F difference,≤ 10%
Cc1ccccc1-c1cc(N2CCN(C)CC2)ncc1N(C)C(=O)C(C)(C)c1cc(C(F)(F)F)cc(C(F)(F)F)c1,healthy volunteers,"oral, 300 mg single dose, mean, together with: palonosetron 0.50 mg fixed combination",,CL/F,20.9 L/h
Nc1nc(NC2CC2)c2ncn([C@H]3C=C[C@@H](CO)C3)c2n1,"HIV-infected patients aged 9-18 years, plasma","oral, 8 mg/kg",,CL/F,20.3 mL/min/kg

# A few entries again:
Compound,system,setting,scale,quantity,value
Cc1nc2cccc(N)c2c(=O)n1C1CCC(=O)NC1=O (stereo not drawn),healthy adults,"oral, 3 mg, fasted geometric mean alone",,CL/F,4.18 L/h
